Measured values gathered from unrelated publications.
Lines come from different studies, so protocols differ. Numbers after ± are the reported error.
Complement C3 C3b fragment: Complement C3, C3b fragment (Homo sapiens, UniProt P01024)

Structure (SMILES) | target | test | system | setting | how to read | endpoint | value
OC[C@H]1O[C@@H](Oc2ccc(OCCc3cn([C@H]4[C@H](O)[C@@H](O)[C@H](c5cn([C@H]6[C@H](O)[C@@H](O)[C@H](n7cc(CCOc8ccc(O[C@@H]9O[C@H](CO)[C@H](O)[C@H](O)[C@H]9O)cc8)nn7)O[C@@H]6CO)nn5)O[C@@H]4CO)nn3)cc2)[C@H](O)[C@@H](O)[C@H]1O | lecA (Pseudomonas aeruginosa, UniProt Q05097) | isothermal titration calorimetry |  | 298 K |  | -TΔS | 5.9 ± 1 kcal/mol
CN[C@H](C)C(=O)NCC(=O)N[C@@H](Cc1ccc(O)cc1)C(=O)N[C@H]1CCCCNC(=O)C[C@@H](C(=O)N[C@@H](Cc2cccc3ccccc23)C(=O)N[C@@H](Cc2cccc3ccccc23)C(=O)N[C@H](CCC(=O)O)C(=O)O)NC(=O)[C@H](Cc2ccc(O)cc2)NC(=O)[C@H]([C@@H](C)O)NC(=O)[C@@H]2CCCN2C(=O)[C@H](CC(N)=O)NC1=O | Amyloid-beta A4 precursor protein-binding family A member 2, PTB-ARM region (APBA2, Homo sapiens, UniProt Q99767) | ITC |  | concentration not given | reference: APP wild-type peptide | binding affinity | 46 fold
C[C@@H]1NC(=O)[C@H](CC(N)=O)NC(=O)[C@H](Cc2ccccc2)NC(=O)c2cc3ccccc3cc2NC(=O)[C@H](CCCNC(=N)N)NC(=O)[C@@H]2CCCN2C(=O)[C@H]2CCCN2C(=O)[C@H](Cc2ccccc2)NC1=O | Melanocortin receptor 3 (Mus musculus, UniProt P33033) | antagonist, cAMP β-galactosidase reporter |  | no activity up to, with: MTII |  | antagonist activity | > 100 µM
CC(C)CC(=N)NCCC[C@H](N)C(=O)O | Nos2 (Mus musculus, UniProt P29477) | enzyme activity, inhibitor |  |  |  | kinact | 0.347 min⁻¹
CC[C@H](C)[C@H](NC(=O)[C@H](CCCNC(=N)N)NC(=O)NC[C@H](CCC(N)=O)NC(=O)NC[C@@H](NC(=O)NC[C@H](CCCNC(=N)N)NC(=O)NC[C@H](Cc1ccc2ccccc2c1)NC(=O)[C@H](CCCCN)NC(=O)[C@H](CCC(=O)O)NC(C)=O)C(c1ccccc1)c1ccccc1)C(=O)N[C@@H](C)C(N)=O | Histone chaperone ASF1A (Homo sapiens, UniProt Q9Y294) | isothermal titration calorimetry |  | concentration not given, pH 7.5, 20 °C |  | binding stoichiometry | 1.2 ± 0.3
CC(C)(C)CCN1C[C@@H]2[C@@H](CNC(=O)c3cc(Cl)cc(Cl)c3)[C@@H]2C1.Cl | Voltage-dependent L-type calcium channel subunit alpha-1F (Homo sapiens, UniProt O60840) | calcium current, whole-cell patch clamp | HEK-293T cells | 5 µM, holding potential -90 mV, with: β2 and α2δ subunits |  | reversal potential | 53.4 ± 2.76 mV
CCCCCCCC/C=C\CCCCCCCC(=O)NC(CO)CO | GPR119 (Homo sapiens, UniProt Q8TDV5) | agonist | HEK293 stably transfected with GPR119 | concentration not given | reference: untransfected cells | cAMP level | increased
CN(CCc1ccc(O)c(Br)c1)CCc1nccs1 | HTR2B (Homo sapiens, UniProt P41595) | β-arrestin recruitment, agonist |  |  |  | Emax | 50.3%
CCCC[C@H](NC(=O)[C@@H]1CSSC[C@H](NC(=O)[C@@H](NC(C)=O)[C@@H](C)CC)C(=O)N[C@@H](C(C)C)C(=O)N[C@@H](Cc2cn(C)c3ccccc23)C(=O)N[C@@H](CCC(N)=O)C(=O)N[C@@H](CC(=O)O)C(=O)N[C@@H](Cc2c[nH]c3ccccc23)C(=O)N(C)CC(=O)N[C@@H](C)C(=O)N[C@@H](Cc2c[nH]cn2)C(=O)N[C@@H](CCCNC(=N)N)C(=O)N1)C(N)=O | Complement C3 C3b fragment | SPR |  | 25 °C | reference: [Trp(Me)4]-Ac-compstatin | relative association rate constant | 1.5
CC[C@H](C)[C@H](NC(C)=O)C(=O)N[C@H]1CSCC[C@@H](C(=O)N(C)[C@H](C(N)=O)[C@@H](C)CC)NC(=O)[C@H](CCCNC(=N)N)NC(=O)[C@H](Cc2c[nH]cn2)NC(=O)[C@H](C)NC(=O)CN(C)C(=O)[C@H](Cc2c[nH]c3ccccc23)NC(=O)[C@H](CC(=O)O)NC(=O)[C@H](CCC(N)=O)NC(=O)[C@H](Cc2cn(C)c3ccccc23)NC(=O)[C@H](C(C)C)NC1=O | Complement C3 C3b fragment | binding, SPR |  | sulfoxide oxidized | reference: untreated peptide | Kd ratio | 4 to 6 fold
CC[C@H](C)[C@H](NC(=O)[C@H](CCCNC(=N)N)NC(=O)[C@H](CCCCN)NC(=O)[C@@H](NC(=O)[C@H](C)NC(=O)[C@H](CCCNC(=N)N)NC(=O)[C@H](CCC(N)=O)NC(=O)[C@H](CO)NC(=O)[C@H](CCCCN)NC(=O)[C@H](CC(N)=O)NC(=O)[C@@H](N)CCCNC(=N)N)[C@@H](C)O)C(=O)N[C@@H](COP(=O)(O)O)C(=O)N[C@@H](Cc1c[nH]cn1)C(=O)N[C@@H](CCSC)C(=O)N1CCC[C@H]1C(=O)N[C@@H](CO)C(=O)N[C@@H](CCCNC(=N)N)C(=O)N1CCC[C@H]1C(=O)N[C@@H](CCC(=O)O)C(=O)N[C@@H](CC(C)C)C(=O)N[C@@H](CO)C(=O)N[C@@H](C)C(=O)N[C@H](C(=O)N[C@@H](C)C(=O)N[C@H](C(=O)N[C@@H](CC(=O)O)C(=O)N[C@@H](CC(C)C)C(=O)N[C@@H](CCCNC(=N)N)C(=O)N[C@@H](CCCCN)C(=O)N[C@@H](CC(=O)O)C(=O)N[C@@H](CCCCN)C(=O)N[C@@H](C)C(=O)N[C@@H](CCCCN)C(=O)N[C@@H](COP(=O)(O)O)C(=O)N[C@@H](CS)C(=O)OC)[C@@H](C)O)C(C)C | YWHAZ (Homo sapiens, UniProt P63104) | binding, stopped-flow fluorescence polarization |  |  |  | kon | 5.75e+07 M⁻¹ s⁻¹

A few entries again:
Structure (SMILES) | target | test | system | setting | how to read | endpoint | value
C[C@@H]1NC(=O)[C@H](CC(N)=O)NC(=O)[C@H](Cc2ccccc2)NC(=O)c2cc3ccccc3cc2NC(=O)[C@H](CCCNC(=N)N)NC(=O)[C@@H]2CCCN2C(=O)[C@H]2CCCN2C(=O)[C@H](Cc2ccccc2)NC1=O | Melanocortin receptor 3 (Mus musculus, UniProt P33033) | antagonist, cAMP β-galactosidase reporter |  | no activity up to, with: MTII |  | antagonist activity | > 100 µM
CC(C)(C)CCN1C[C@@H]2[C@@H](CNC(=O)c3cc(Cl)cc(Cl)c3)[C@@H]2C1.Cl | Voltage-dependent L-type calcium channel subunit alpha-1F (Homo sapiens, UniProt O60840) | calcium current, whole-cell patch clamp | HEK-293T cells | 5 µM, holding potential -90 mV, with: β2 and α2δ subunits |  | reversal potential | 53.4 ± 2.76 mV
